Measurements of several laboratories.
Lines come from different studies, so protocols differ. Numbers after ± are the reported error.

| SMILES | assay | test system | conditions | tissue uptake [%ID/g] |
| --- | --- | --- | --- | --- |
| CC(C)C[C@@H](NC(=O)[C@@H](CC(C)C)NC(=O)[C@@H](CC(=O)O)NC(=O)[C@@H](CC(C)C)NC(=O)[C@@H](CC(C)C)NC(=O)[C@@H](CC(C)C)NC(=O)[C@H](NC(=O)[C@@H](CC(=O)O)NC(=O)[C@H](NC(=O)[C@H]1CCCN1C(=O)[C@@H](Cc1ccccc1)NC(=O)[C@@H](CC(C)C)NC(=O)[C@@H](CC(C)C)NC(=O)[C@@H](CC(=O)O)NC(=O)[C@@H](CC(C)C)NC(=O)[C@@H](Cc1ccc(O)cc1)NC(=O)[C@@H](C)NC(=O)[C@@H](CCCNC(=N)N)NC(=O)[C@@H](Cc1c[nH]c2ccccc12)NC(=O)[C@H]1CCCN1C(=O)[C@@H](CC(N)=O)NC(=O)[C@@H](CCC(N)=O)NC(=O)[C@@H](CC(=O)O)NC(=O)[C@@H](CC(=O)O)NC(=O)[C@@H](CSC1CC(=O)N(CCNC(=O)CN2CCN(CC(=O)O)CCN(CC(=O)O)CC2)C1=O)NC(=O)[C@@H](C)N)[C@H](C)O)[C@H](C)O)C(=O)N[C@H](Cc1c[nH]c2ccccc12)C(=O)O (some centres unmarked) [copper-64 labelled] |  | C57BL/6 mice, female, B16-F10 melanoma, blood | intravenous, 12 h | 11.6 |
| CC(C)C[C@@H]1NC(=O)[C@H](CC(=O)O)NC(=O)CNC(=O)[C@H](CCCNC(=N)N)NC(=O)[C@H](Cc2ccc(O)cc2)NC(=O)[C@H](CCCCNC(=O)CCc2cn(CCCNC(=O)CCP(=O)(O)CN3CCN(CP(=O)(O)CCC(=O)NCCCn4cc(CCC(=O)NCCCC[C@H]5C(=O)N[C@@H](Cc6ccc(O)cc6)C(=O)N[C@@H](CCCNC(=N)N)C(=O)NCC(=O)N[C@@H](CC(=O)O)C(=O)N[C@@H](CC(C)C)C(=O)N[C@@H](C)C(=O)N[C@@H](Cc6ccc(O)cc6)C(=O)N6CCC[C@@H]6C(=O)N5C)nn4)CCN(CP(=O)(O)CCC(=O)NCCCn4cc(CCC(=O)NCCCC[C@H]5C(=O)N[C@@H](Cc6ccc(O)cc6)C(=O)N[C@@H](CCCNC(=N)N)C(=O)NCC(=O)N[C@@H](CC(=O)O)C(=O)N[C@@H](CC(C)C)C(=O)N[C@@H](C)C(=O)N[C@@H](Cc6ccc(O)cc6)C(=O)N6CCC[C@@H]6C(=O)N5C)nn4)CC3)nn2)N(C)C(=O)[C@H]2CCCN2C(=O)[C@H](Cc2ccc(O)cc2)NC(=O)[C@H](C)NC1=O [gallium-68 labelled] | PET imaging | SCID mice with H2009 tumour, left kidney | 75 min | 27.9 |
| N#C[C@@H]1CC(F)(F)CN1C(=O)CNC(=O)c1ccnc2ccc(OCCCN3CCN(C(=S)Nc4ccc(C[C@H]5CN(CC(N)=O)CCN(CC(N)=O)CCN(CC(N)=O)CCN5CC(N)=O)cc4)CC3)cc12 [lead-203 labelled] |  | male NRG mice HEK293T-hFAP tumour, tumour | intravenous, 100 pmol, 1 h, unblocked | 1.68 ± 0.26 |
| Cc1cc(-c2ccc(NC(=O)CC[C@H](NC(=O)CN3CCN(CC(=O)O)CCN(CC(=O)O)CCN(CC(=O)O)CC3)C(=O)NCC(=O)N[C@@H](CC(N)=O)C(=O)N[C@H](C(=O)N[C@H](C(=O)N[C@@H](CCCNC(=N)N)C(=O)N[C@@H](CCC(N)=O)C(=O)O)C(C)C)C(C)C)c(C)c2)ccc1/N=N/c1ccc2c(S(=O)(=O)O)cc(S(=O)(=O)O)c(N)c2c1O [copper-64 labelled] |  | nude mice, heart | intravenous, 1 h | 19.3 ± 2.57 |
| CCCC[C@@H]1NC(=O)[C@@H](CC(C)C)NC(=O)[C@H](CCCCNC(=O)CN2CCN(CC(=O)O)CCN(CC(=O)O)CC2)NC(=O)NNC(=O)[C@H](Cc2c[nH]cn2)NC(=O)[C@@H](Cc2c[nH]c3ccccc23)NC1=O [copper-64 labelled] |  | Balb/c mice, bone | intravenous, dose not given | 0.12 ± 0.02 |
| N#C[C@@H]1CC(F)(F)CN1C(=O)CNC(=O)c1ccnc2ccc(OCCCN3CCN(C(=O)CN4CCN(CC(N)=O)CCN(CC(N)=O)CCN(CC(N)=O)CC4)CC3)cc12 [lead-203 labelled] |  | male NRG mice HEK293T-hFAP tumour, tumour | intravenous, 100 pmol, 1 h, unblocked | 8.62 ± 1.32 |
| CCCC[C@@H]1NC(=O)[C@@H](CC(C)C)NC(=O)[C@H](CCCCNC(=O)CN2CCN(CC(=O)O)CCN(CC(=O)O)CC2)NC(=O)[C@@H](CO)NC(=O)[C@H](Cc2c[nH]cn2)NC(=O)[C@@H](Cc2c[nH]c3ccccc23)NC1=O [copper-64 labelled] |  | Balb/c mice, kidneys | intravenous, dose not given | 0.83 ± 0.09 |
| CC(C)C[C@H](NC(=O)[C@@H](CCCCNC(=O)[C@@H](Cc1ccccc1)NC(=O)CCCCCNC(=O)CN1CCN(CC(=O)O)CCN(CC(=O)O)CCN(CC(=O)O)CC1)NC(=O)[C@H](Cc1ccc(O)cc1)NC(=O)[C@H](CO)NC(=O)[C@H](Cc1c[nH]c2ccccc12)NC(=O)[C@H](Cc1c[nH]cn1)NC(=O)[C@@H]1CCC(=O)N1)C(=O)N[C@@H](CCCNC(=N)N)C(=O)N1CCC[C@H]1C(=O)NCC(N)=O [indium-111 labelled] |  | female athymic nude mice, blood | intravenous, 0.037 MBq, 1 h | 0.32 ± 0.21 |

Repeated from above:
| SMILES | assay | test system | conditions | tissue uptake [%ID/g] |
| --- | --- | --- | --- | --- |
| Cc1cc(-c2ccc(NC(=O)CC[C@H](NC(=O)CN3CCN(CC(=O)O)CCN(CC(=O)O)CCN(CC(=O)O)CC3)C(=O)NCC(=O)N[C@@H](CC(N)=O)C(=O)N[C@H](C(=O)N[C@H](C(=O)N[C@@H](CCCNC(=N)N)C(=O)N[C@@H](CCC(N)=O)C(=O)O)C(C)C)C(C)C)c(C)c2)ccc1/N=N/c1ccc2c(S(=O)(=O)O)cc(S(=O)(=O)O)c(N)c2c1O [copper-64 labelled] |  | nude mice, heart | intravenous, 1 h | 19.3 ± 2.57 |
